Experimental data of several laboratories.
Numbered parts are unrelated; each lists some results of a single study.

Set 1
Target: Histone acetyltransferase KAT6A, both winged helices, GST fusion (KAT6A, Homo sapiens, UniProt Q92794, residues 1-181)
Technique: protein binding microarray
Form: double-stranded DNA, one strand shown
Sample: in vitro
Tested at: not given
Setting: 8-mer, flanks averaged, mean of 2 arrays, mostly near background
Reference: not given
Reading: higher = stronger binding
Target sequence (chain): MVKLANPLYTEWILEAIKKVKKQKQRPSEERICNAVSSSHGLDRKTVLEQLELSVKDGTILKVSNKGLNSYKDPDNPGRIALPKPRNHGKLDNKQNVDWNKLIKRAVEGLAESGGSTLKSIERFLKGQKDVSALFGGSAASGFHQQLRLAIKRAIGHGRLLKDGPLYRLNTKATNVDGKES
Strand | E-score
AAAAACGC | 0.191
ATTACTGA | -0.133
AGATTCCT | -0.265
CTATACCC | -0.00791
AGGCCATA | -0.112
CTAATTGA | -0.138
ACCGCTAG | 0.147
AGTCTTAA | -0.0246
GCCAGTTA | -0.102
ATACCTAT | -0.184
TCACGTGA | 0.0585
CAGATGAG | -0.274
CCGGAAAC | 0.194
AACTTGCA | -0.128
AGACAGTG | -0.106
CCCCGCCA | 0.165
CGGAGTGC | 0.14

Set 2
Target: Ras GTPase-activating protein-binding protein 1, C-terminal RGG region (G3BP1, Homo sapiens, UniProt Q13283)
Chain of UniProt Q13283 (whole entry, looked up): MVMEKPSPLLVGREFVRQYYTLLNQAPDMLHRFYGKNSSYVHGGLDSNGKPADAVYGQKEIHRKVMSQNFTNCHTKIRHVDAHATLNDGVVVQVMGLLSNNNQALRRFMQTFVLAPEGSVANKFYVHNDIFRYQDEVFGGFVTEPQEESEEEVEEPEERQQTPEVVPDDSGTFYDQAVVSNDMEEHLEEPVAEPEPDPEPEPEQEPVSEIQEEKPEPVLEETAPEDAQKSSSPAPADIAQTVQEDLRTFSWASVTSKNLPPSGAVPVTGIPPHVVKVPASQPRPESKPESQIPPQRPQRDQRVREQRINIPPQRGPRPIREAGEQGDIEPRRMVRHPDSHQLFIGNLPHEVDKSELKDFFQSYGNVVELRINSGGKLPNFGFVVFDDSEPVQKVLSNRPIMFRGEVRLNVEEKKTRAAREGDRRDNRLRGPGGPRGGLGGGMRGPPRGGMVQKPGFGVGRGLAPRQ
Technique: RNA Bind-n-Seq
Form: RNA
Sample: in vitro
Tested at: 1 µM
Setting: whole 134-nt RNA, ends assumed
Added: 150 mM KCl
Reference: input library
Reading: higher = stronger binding
Constant ends, left off below: GGGAGUUCUACAGUCCGACGAUC … UGGAAUUCUCGGGUGUCAAGG
Strand | log2 enrichment
UGGCCCUGGUGGCAUGCGGGGAGGAAGAGGUGGCCUCAUGGAUCGUGGUGGUCCCGGUGGAAUGUUCAGAGGUGGCCCUGGUGGAGACAG | 3.2
AAGUCCUGUGCUACACAUCGUAUGUACCGAAUCGGGUUUUUUUGGGAGGGUUUGGGAAAGUAUUAUGUUACGCCGUUCGGAUCUGCACUU | 0.665
UUGAGAAGAAGCAAAAAGAGAUGGAUGAAGCUGCUACGGUGAGAGAAAACCCACUAUCGAUUCCACUCACCACUUACCUCCUUCCCUUAC | -0.72
UGGGAGGUGGAUUUUGUUUAUUUUUUUAGCUCCUUUCCAGGGGUGGGAAUUUUUUUUUAAUAUGUGUCAUGAAUAAAGUUGUUUUUGAAA | 3.2
CACAGACAACACGCACCCACACAGACACAGAGGGAAGGGGUUGGGAUGUGGACAGGGUGCACAGCAGGGCGGGGUAGGACCCCAGCCCCU | -0.334
CCUCAAGUCCUGUGCUACACAUCGUAUGUACCGAAUCGGUUUGGAGGAAAGGAAAGUAUUAUGUUACGCCGUUCGGAUCUGCACUUCCAG | -0.766
AGUCCUGUGCUACACAUCGUAUGUACCGAAUCAAACCCAAACCCAAAUUUUUUUAAAAAAGUAUUAUGUUACGCCGUUCGGAUCUGCACU | -1.05
UGGGAGGUGGAUUUUGUUUAUUUUUUUAGCUCAUUUCCAGGGGUGGGAAUUUUAUUUUAAUAUGUGUCAUGAAUAAAGUUGUUUUUGAAA | 3.35
UGGGAGGUGGAUUUUGUUUAUUUUUUUAGCUCAUUUCCAGGGGUGGGAAUUUUGUUUUAAUAUGUGUCAUGAAUAAAGUUGUUUUUGAAA | 2.83
AAGUCCUGUGCUACACAUCGUAUGUACCGAAUCGGGUUUUUGGGAAAGGGAAAGGGAAAGUAUUAUGUUACGCCGUUCGGAUCUGCACUU | 0.918
AGUCCUGUGCUACACAUCGUAUGUACCGAAUCGGGGUGGGGAAAAAGGGGUUUGGGGAAAGUAUUAUGUUACGCCGUUCGGAUCUGCACU | 1.85
UGUGCUACACAUCGUAUGUACCGAAUCGGGGUUUUUGGGGUUUUUUUGGGGAAAAAAAGGGGAAAGUAUUAUGUUACGCCGUUCGGAUCU | 0.588
GCAGGAAGUAAAAACAAAUGGAAAUGCUUCGGAUAGUGGCAAGGGUGGGGGUUGCUAAGGAAAGGGUGGGAUGGGAGUGGGUAAAGAGUU | 1.28
UAACUUUAGAGGAGGAUCUGAUGGAUACGGCAGUGGACGUGGAUUUGGGGAUGGCUAUAAUGGGUAUGGAGGAGGACCUGGAGGUGGCAA | -1.48

Set 3
Target: Transcription factor SOX-2, HMG box (SOX2, Homo sapiens, UniProt P48431, residues 19-118)
Chain of UniProt P48431 (19-118, looked up): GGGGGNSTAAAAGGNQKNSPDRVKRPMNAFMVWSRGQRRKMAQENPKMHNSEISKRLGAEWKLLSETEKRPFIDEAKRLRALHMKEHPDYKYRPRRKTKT
Technique: protein-binding microarray
Form: double-stranded DNA, one strand shown
Sample: in vitro
Tested at: not given
Setting: k-mer, scored over probes, only values ≥0.25
Reading: higher = stronger binding
Strand | E-score
AATACAA | 0.362
AACAATA | 0.485
TTCACAA | 0.286
AGACAAT | 0.464
AATTGGT | 0.278
ATGAATG | 0.462
TGAATAA | 0.387
ACAATGA | 0.453
CAATAAA | 0.309
ATATACA | 0.252
TCATTCA | 0.362
AATTCTC | 0.26
ATTGTCC | 0.455
AATTATA | 0.408
ATGAAAT | 0.325
CAATGTG | 0.264
CAATGTA | 0.291
TCAATGA | 0.349

Set 4
Target: Interferon regulatory factor 3, full length, phosphomimetic (IRF3, Homo sapiens, UniProt Q14653, residues 1-427, S386D/S396D/S398D/S402D/T404D/S405D)
Technique: protein-binding microarray
Form: double-stranded DNA, one strand shown
Sample: in vitro
Tested at: 2540 nM top
Setting: 60-bp whole probe
Added: salmon DNA 0.4 mg/ml
Reference: random background probes
Reading: higher = stronger binding
Constant ends, left off below: GCCTAGCAC … GTCTTGATTCGCTTGACGCTGCTG
Target sequence (chain): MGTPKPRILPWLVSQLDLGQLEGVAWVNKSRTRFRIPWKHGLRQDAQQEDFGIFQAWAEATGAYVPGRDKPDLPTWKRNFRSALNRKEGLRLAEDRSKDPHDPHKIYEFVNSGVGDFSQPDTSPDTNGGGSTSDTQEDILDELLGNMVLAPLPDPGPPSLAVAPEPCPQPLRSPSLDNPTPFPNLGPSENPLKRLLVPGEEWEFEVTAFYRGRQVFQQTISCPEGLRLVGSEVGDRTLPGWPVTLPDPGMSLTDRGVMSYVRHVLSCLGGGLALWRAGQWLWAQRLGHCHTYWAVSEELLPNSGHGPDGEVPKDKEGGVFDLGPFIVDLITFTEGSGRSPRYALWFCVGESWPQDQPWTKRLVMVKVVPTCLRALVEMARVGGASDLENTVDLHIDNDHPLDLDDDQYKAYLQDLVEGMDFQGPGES
Strand | fitted relative affinity [z-score]
GACGATTTCGGGTACCGAGACGTGCTA | 1.54
GACGGTTTCGGACTGGGGAGGTGCTAG | 4.55
TTAGGTTTCGGTTTCGGTTTGTGCTAG | 13.5
GACGATCTCCTTATCCTGACGTGCTAG | 1.69
GACCATATCAGTCTCGAGACGTGCTAG | 1.84
AAGGTTACCCATCTCAAGTAGTGCTAG | 3.97
GACGCTATCGGTTTCGGGACGTGCTAG | 4.63
GACGATATCAGTTTCGACACGTGCTAG | 3.33
TTAGGACTGGGGAGTGGGTTAGTGCTA | -0.921
TTAGGTTTCGGGTACCGGTTAGTGCTA | 3.8
GACGGTTTCCTTTCACTGACGTGCTAG | 9.37
GGAGGAGCGGGACTGCCACCGTGCTAG | -0.699
TTAGGTCTCCTTCTACTTTAGTGCTAG | 2.77
TTAGGTTCCTTTTTCCTTTAGTGCTAG | 9.32
TTTGGTTTCCTTTTCCTTTAGTGCTAG | 13.2
TCAATCTTCATTGTCATACTGTGCTAG | 0.76
AAAACACTAATTTTCATTTTGTGCTAG | 1.77
GACGATTTCAGTTCCGATACGTGCTAG | 3.62
TTAGGTTTCGGGACCGGGTTAGTGCTA | 3.77

Set 5
Target: Prothrombin, mature alpha-thrombin (F2, Homo sapiens, UniProt P00734)
Technique: aptamer microarray, sandwich
Form: DNA with 2'F-ANA
Sample: in vitro
Tested at: 200 nM
Setting: whole 15-mer aptamer, many near background
Added: Cy3 exosite-II aptamer, 400 nM
Reading: higher = stronger binding
Strand: GGTTGGTGTGGTTGG
Modification | mean fluorescence intensity [a.u.]
2'F-ANA at 2 4 5 6 7 8 9 11 12 14 | 47
2'F-ANA at 1 2 3 4 5 8 9 10 11 12 13 14 | 45.7
2'F-ANA at 1 2 6 9 12 13 15 | 218
2'F-ANA at 2 4 5 10 12 13 14 15 | 47.8
2'F-ANA at 1 2 5 7 9 12 14 15 | 48.5
2'F-ANA at 1 2 5 6 8 10 11 12 | 61.2
2'F-ANA at 1 4 5 6 7 11 12 13 14 15 | 55.8
2'F-ANA at 2 4 6 7 9 10 13 | 108
2'F-ANA at 2 3 4 8 9 10 11 12 14 | 190
2'F-ANA at 1 4 6 7 10 12 13 14 15 | 48.8
2'F-ANA at 1 3 4 5 6 7 8 10 13 14 15 | 81
2'F-ANA at 1 2 9 11 12 13 15 | 231
2'F-ANA at 4 5 6 7 9 10 11 14 | 43.1
2'F-ANA at 1 2 4 5 7 9 10 11 14 15 | 50.7
2'F-ANA at 1 5 6 8 12 15 | 104
2'F-ANA at 2 4 5 7 10 13 14 15 | 41.9
2'F-ANA at 2 3 9 10 12 14 | 321
2'F-ANA at 1 3 7 8 9 10 11 12 14 | 73
2'F-ANA at 1 4 5 6 7 12 14 15 | 49.1
2'F-ANA at 1 2 6 9 10 11 12 13 | 59.6

Set 6
Target: RNA binding protein fox-1 homolog 2, RRM domain, GST-SBP tag (RBFOX2, Homo sapiens, UniProt O43251-10, residues 100-194)
Technique: RNA Bind-n-Seq
Form: RNA
Sample: in vitro
Tested at: 365 nM
Setting: natural RNA segment, single round, ends assumed
Reference: no-protein control
Reading: higher = stronger binding
Constant ends, left off below: GGGAGUUCUACAGUCCGACGAUC … UGGAAUUCUCGGGUGCCAA
Construct (chain): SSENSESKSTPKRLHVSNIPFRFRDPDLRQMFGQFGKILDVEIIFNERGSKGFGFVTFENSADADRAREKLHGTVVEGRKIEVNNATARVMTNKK
Strand | RBNS enrichment (R)
AACAUACUUUUCAGUUCCCGAGAGACCACCUAAGUAAGAUGACAUUUCUGACAGGCGGGUGCCAGUCUGCACUGCCCGCAGUGAGUGCAGGUUCUGUUUUUGAGUUUGGU | 0.796
GAUCUCAGGCAGCGCUGUUUCCUGUGAAGAAAAAAAAAGUGUAUAUAUCCAUAGAUAUAGUACUUUGUCUUGUCAGGAGGUGGAAACCGAAAUAAAUUAUCUUUUAAAAA | 0.217
GGCUAGUCACCUGGCCCCUGUGUGCCCCGUGUUCAUCUGUGAAAGGAGGUAAAAAAAAAAAAAUAUCUACCUGCUGGAUGUCACCCCACACUAAGGGCUUCCACCACUGC | 0.273
CUGAGAUGGAUGACUGGCGUGAACAUGUCUCUGAAGUUGUACUUGAGAAGACAAGAAGAAUAAUGUCAACAGAACAACAUCACUUUGGGCCAAGCAUUUGAACACUUUUU | 0.426
GAUGUAUGUGCGGCCAGUGACUUCCCCAGGAGUGUGGAGGGGGUGGUGAGGAGGAGCACCUGGGCUCUCUACCCCUCUCCUCACAGAAGUACCUGAAACUAGGUCUGGGG | 0.864
AUCUGGCAGCCAGGCAGCCCCAGAAGAGAGACAUUCAGACAAAGGAAGUCUUCUGCUCACCCUUCCUUAAAGAUCAGAUAAACUUGUCAUCCCUUCCCAGCAAUGAUGAC | 0.697
GCUAAAGCCGAUGGUGAAGAAAAGGUGCUGGUCUCAUGAGCCCUGAAGAAUGAACUCAGAGGAGGUUGUUUACAUGAGGUUCUCCCACUCACCAGCUGUUGAGAGUCUGC | 0.507
UAUUCCUGGCCAUGUUUGAAUGAGCCUCUUAAAAUAAACUUAGAGCCAUGCAAAUGCCAGCAGCUUAAUGGAUUUCAUGGAAUGAAAUACCGUGAUUAACUCAUAGCUAC | 0.296
AGGGGCAGGGAACCGCCUGCCUGUGCACUCACGCCACCCCCCAGCCCACAAAGAGCCCAUCUGAGAGAAGGACGUGGUGGAGCCAGGACGGGAAAGCGUCCUGUCGGCUG | 0.465
AAGCACAAAGCAACGUGCAAUACAAAAAUCGUAUCUCAAGGGAAAAUACUCAAAGAAAGAAAAGUGGCAGCACUUAUAUUAGUUUUAUAACAGGAUAAAGUCUUGUGUAU | 0.294
GCUGCUACACUACAGGACACCCAGCAUCGGCUUUGACUGCAGACUGUUCACCCACACGAGCCCUGUGCUUUUGGUGUAAAUAAUGUACAAUUUGUGGAUGUCAUUGAAUC | 0.404
UCACUUGUACUGUAAUAGUGUAUAUAACUUAGUUGGUAUUUCACUAUUUAAUUUUUAAGAAGCCUAUUUUACUAGUGUUUUGUAUGAAGAAAAAUACUGCAGAAGUUAAA | 0.698

Some of these lines once more (set 4):
Strand | fitted relative affinity [z-score]
AAGGTTACCCATCTCAAGTAGTGCTAG | 3.97
GACGATTTCGGGTACCGAGACGTGCTA | 1.54
TTAGGTCTCCTTCTACTTTAGTGCTAG | 2.77
GACGGTTTCGGACTGGGGAGGTGCTAG | 4.55
GACGATCTCCTTATCCTGACGTGCTAG | 1.69
GACCATATCAGTCTCGAGACGTGCTAG | 1.84
TTAGGTTTCGGGACCGGGTTAGTGCTA | 3.77
GACGATATCAGTTTCGACACGTGCTAG | 3.33
